Measurements collected from several papers.
Every numbered part comes from another study and shows a few of its results, in no order. Substitutions count along the parent as printed.

Sample 1
Target: JUN, bZIP domain (human)
Method: DHFR protein complementation
Sample: yeast
Setting: single substitutions, most at no-binding floor
Relative to: wild-type JUN-FOS pair
Reading: higher = stronger binding
Starting sequence: JUN, bZIP domain (human); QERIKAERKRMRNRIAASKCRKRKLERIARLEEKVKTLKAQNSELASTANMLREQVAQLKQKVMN
Substitution | binding fitness [natural log]
L52V | -1.37
L31T | -1.35
L59T | -1.22
L52R | -1.29
V35R | -1.2

Sample 2
Target: CCND1, cyclin fold, Cln2 fusion (human)
Method: yeast growth competition, sequencing
Sample: yeast
Setting: weak parent motif
Relative to: not given
Reading: higher = stronger binding
Starting sequence: SLBP docking peptide (human); ARYKRKLLINDFG; partner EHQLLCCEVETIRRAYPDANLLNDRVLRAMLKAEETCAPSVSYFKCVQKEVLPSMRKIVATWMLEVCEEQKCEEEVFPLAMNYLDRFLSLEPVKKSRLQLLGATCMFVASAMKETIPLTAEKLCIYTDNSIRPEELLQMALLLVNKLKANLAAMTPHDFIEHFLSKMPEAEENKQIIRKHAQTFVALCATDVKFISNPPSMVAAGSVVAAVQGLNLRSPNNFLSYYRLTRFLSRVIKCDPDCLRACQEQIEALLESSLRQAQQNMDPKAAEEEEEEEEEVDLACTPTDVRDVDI
Substitution | normalised enrichment score
F12T | -0.954
L8A | 0.108
G13N | -0.0475
Y3V | 0.157
N10S | -0.112
F12E | -0.0418
A1C | -0.0263
I9D | -0.402
I9W | 0.164
F12V | -0.442
K4L | 0.727
G13Q | 0.0177
A1M | 0.221
K4I | 0.105
G13E | 0.346
K6C | 0.535
R5E | 0.152
L8P | -0.0685
L8T | -0.15
I9T | -0.0449
L8Y | -0.216
Y3K | 0.788
K6D | -0.328
R5Q | -0.321
R2P | 0.189

Sample 3
Target: ABI1, truncated, D143A, DHFR fusion (Arabidopsis thaliana, UniProt P49597)
Method: DHFR PCA, dose-response
Sample: yeast
Setting: Hill fit, mean, not affinity
Together with: (+)-ABA, dose series
Reading: lower = more sensitive
Starting sequence: PYL1, truncated, DHFR fusion (Arabidopsis thaliana, UniProt Q8VZS8); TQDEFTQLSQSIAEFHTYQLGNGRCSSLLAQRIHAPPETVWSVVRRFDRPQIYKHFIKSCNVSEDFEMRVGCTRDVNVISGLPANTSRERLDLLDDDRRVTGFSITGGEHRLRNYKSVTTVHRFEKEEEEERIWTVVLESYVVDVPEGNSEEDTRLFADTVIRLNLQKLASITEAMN
Substitution | ABA EC50 [µM]
D96Q | 127
M68W | 22.6
L91N | 709
T173V | 1.97
D75Y | 2.26
L93D | 109
H55R | 0.205
I52E | 3.53
E14R | 8.29

Sample 4
Target: Interferon regulatory factor 5, full length, phosphomimetic (IRF5, Homo sapiens, UniProt Q13568-2, residues 1-514, K96S/S451D/S453D/S456D/S462D)
Method: protein-binding microarray
Form: double-stranded DNA, one strand shown
Sample: in vitro
Concentration: 250 nM
Setting: 60-bp whole probe
Together with: salmon DNA 0.4 mg/ml
Relative to: random background probes
Reading: higher = stronger binding
All sequences stand within: GCCTAGCAC … GTCTTGATTCGCTTGACGCTGCTG
Sequence | log fluorescence [z-score]
TTAGATATCAGAGTGGATTAGTGCTAG | 0.282
GACGATTTCGGGTTTCTAGACGTGCTA | 3.75
TTAGGAATCGGTTTCGGTTAGTGCTAG | 9.87
TTAGAACTGAGTATCGATAAGTGCTAG | 5.85
AACGGACTGCTACTGCTGACGTGCTAG | -0.27
TTAGGACTGGGGACTTGGTTAGTGCTA | -0.413
GACGGTATCGACACTGAGGACGTGCTA | 1.7
TTAGGTTTCGGGTTGCGGTTAGTGCTA | 8.78
TTAGAACCGAGTATCGATTAGTGCTAG | 6.49
CACGATATCAGACTGGAGACGTGCTAG | 0.11
TTCGGTTTCGGTATCGGTTAGTGCTAG | 11
TCATTTACAGGTTCTCTTACTGTGCTA | 1.11
ACACGGCTCTAAACTCATGTAGTGCTA | -0.156
TTAGATTCCAGTTTCGATAAGTGCTAG | 8.65
GACGGTTTAGGGTTTCGGGACGTGCTA | 1.78
TTAGGTATCGGTTTCGGATAGTGCTAG | 9.38
TCACCTCCCTAATTCTGACTGTGCTAG | 0.093
TTAGGAATCGGACTGGGTTAGTGCTAG | 0.0328
TTAGGACTGGTTCTCCTTTAGTGCTAG | -0.174
TTAGTTATCCTTATCCTTTAGTGCTAG | 0.724
TTAGATTTCAGGTATCGATTAGTGCTA | 4.81
TTTTGTTTTTCATTATTGTCGTGCTAG | 4.84
TTAGAACTGAGTTTCGATTGGTGCTAG | 9.37
TTAGGACTGCTTATCCTCTAGTGCTAG | -0.316

Sample 5
Target: Centromere-binding protein 1, full length, N-terminal tag (CBF1, Saccharomyces cerevisiae, UniProt P17106, residues 1-351)
UniProt P17106, sequence (whole entry, looked up): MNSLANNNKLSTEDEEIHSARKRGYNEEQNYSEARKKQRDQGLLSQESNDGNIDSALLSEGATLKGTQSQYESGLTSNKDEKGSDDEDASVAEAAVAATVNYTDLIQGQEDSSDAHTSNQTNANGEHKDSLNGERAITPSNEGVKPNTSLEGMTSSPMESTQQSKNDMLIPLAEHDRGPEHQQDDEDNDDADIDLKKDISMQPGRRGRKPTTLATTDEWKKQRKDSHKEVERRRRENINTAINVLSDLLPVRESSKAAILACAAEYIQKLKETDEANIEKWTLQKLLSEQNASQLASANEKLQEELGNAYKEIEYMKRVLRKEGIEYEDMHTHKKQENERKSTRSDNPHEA
Method: protein-binding microarray
Form: double-stranded DNA, one strand shown
Sample: in vitro
Concentration: 0.8 µM
Setting: whole 60-bp probe, no competitor
Reading: higher = stronger binding
Sequence | fluorescence intensity [a.u.]
CCTAACTACTATATACACGTGCCATAGCTTCGTACAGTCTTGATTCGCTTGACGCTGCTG | 7430
CTAGTGGTTTCTTTATACGTCACAAATCTGTATTTCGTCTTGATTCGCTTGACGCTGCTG | 557
GAACCGTAGTAATATCACGATAGGACAAATTGGTAGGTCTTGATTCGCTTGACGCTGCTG | 595
GAAAGTGAAAACGGAGTGGTGATGAAGATGGGGTAGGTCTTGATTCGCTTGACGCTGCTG | 505
CTAATTTTCACGCAGAACGTGCCTAAGAAAAAATTCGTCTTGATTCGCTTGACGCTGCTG | 766
CTATTCTCTGTTCGTCATATGATAACTTAAGCATTCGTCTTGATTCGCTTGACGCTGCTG | 1030
CTAGCTATTACCCGCTCCGTGATTTTGGTCGTTTTCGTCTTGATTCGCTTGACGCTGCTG | 566
TGTACGAAGCTATTGCACACGAATATAGTAGTTAGGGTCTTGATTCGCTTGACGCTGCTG | 533
GAACCACTCATAAATCACGACGCTACGTAGTTCTAGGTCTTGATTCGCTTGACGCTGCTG | 608
CTATTTCAACCACTTCTGATGTTTTCTTTGAACTTCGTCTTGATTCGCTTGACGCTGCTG | 537
CTAAAAAAGGTTTAACACATGAATTAAAAAGGATTCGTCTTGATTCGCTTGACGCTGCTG | 567
CCTAACTACTATATTCTGATGCCATAGCTTCGTACAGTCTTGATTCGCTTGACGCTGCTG | 523
CTAATGCCACTATGTGGTGTGAGGAAGCAGATATTCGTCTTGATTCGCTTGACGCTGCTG | 522
GAAATCCGAGCTTGTCACCTTTAACTTACGTTTTAGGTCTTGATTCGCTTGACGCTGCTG | 514
TGTACGAAGCTATCAAACGTGTATATAGTAGTTAGGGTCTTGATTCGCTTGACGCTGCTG | 564
GAAGAGAACTACCCTGACGTCATCAGCGAAATTTAGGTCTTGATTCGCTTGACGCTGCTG | 491
CCTAACTACTATAGACACATAAAATAGCTTCGTACAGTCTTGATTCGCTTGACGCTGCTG | 532
CTACACCTACTGCATCACCTACTTGTATAATCCTTCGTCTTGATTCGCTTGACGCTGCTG | 560
GAAGGGTAGCGACGGGATGTGACAATACCTTTCTAGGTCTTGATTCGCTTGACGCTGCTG | 525
CCTAACTACTATAGTCACGGGACATAGCTTCGTACAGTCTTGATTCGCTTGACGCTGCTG | 4350
CTAGCTAAACGTCAAAACGTGTAAAGCACCTATTTCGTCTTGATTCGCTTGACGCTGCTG | 522
GAATTCTTATTGGGTGGCGTGCCGTACAGAACGTAGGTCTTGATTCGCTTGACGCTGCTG | 842
CTAACAAGCTATTAATATGTGACCCATACATTTTTCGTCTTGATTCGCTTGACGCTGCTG | 514
CTAATGACACGATAGCATGTGCTTTTCGACGGCTTCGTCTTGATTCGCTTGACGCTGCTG | 679
CCTAACTACTATAATCATCATTAATAGCTTCGTACAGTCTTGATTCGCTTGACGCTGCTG | 530

Sample 6
Target: Histone acetyltransferase KAT6A, winged helix 1, GST fusion (KAT6A, Homo sapiens, UniProt Q92794, residues 1-85)
Method: protein binding microarray
Form: double-stranded DNA, one strand shown
Sample: in vitro
Concentration: not given
Setting: 8-mer, flanks averaged, mean of 2 arrays, mostly near background
Relative to: not given
Reading: higher = stronger binding
Construct (chain): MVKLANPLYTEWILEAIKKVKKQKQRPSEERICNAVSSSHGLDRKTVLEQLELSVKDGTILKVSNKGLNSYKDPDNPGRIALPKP
Sequence | E-score
AGATTCTG | -0.362
AACACCCT | -0.127
AGGACGAC | -0.251
CGGAGAAG | 0.0815
AGATCGAT | -0.141
AGTCCTTA | -0.0436
TAACGAGA | -0.0932
GTTACGGA | 0.269
CCGAAGGC | 0.0768
CAGCACAA | -0.148
CCTTGCAA | -0.183
ATATTAAA | 0.105
CCCGTCAG | 0.213
CACTAAGG | -0.0638
AAGGGCCA | -0.13
GCCCCGCA | 0.278
GTCATTTA | -0.171
GCCGTATA | 0.317
ATCCACAT | -0.163
ACGAGTTA | -0.0727
GGCGCACC | 0.285
CAGATGAC | -0.0152
ACATAGTG | -0.0974
AAAGCACT | -0.174
CGTTAAGC | 0.18

Excerpt of the above (sample 5):
Sequence | fluorescence intensity [a.u.]
CTATTCTCTGTTCGTCATATGATAACTTAAGCATTCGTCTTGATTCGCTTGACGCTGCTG | 1030
CTAGCTATTACCCGCTCCGTGATTTTGGTCGTTTTCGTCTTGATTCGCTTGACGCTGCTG | 566
TGTACGAAGCTATTGCACACGAATATAGTAGTTAGGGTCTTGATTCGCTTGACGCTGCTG | 533
GAACCACTCATAAATCACGACGCTACGTAGTTCTAGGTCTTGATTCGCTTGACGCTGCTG | 608
CTATTTCAACCACTTCTGATGTTTTCTTTGAACTTCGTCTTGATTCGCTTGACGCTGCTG | 537
CTAAAAAAGGTTTAACACATGAATTAAAAAGGATTCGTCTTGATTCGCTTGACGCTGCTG | 567
CCTAACTACTATATTCTGATGCCATAGCTTCGTACAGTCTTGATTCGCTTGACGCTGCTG | 523
CTAATGCCACTATGTGGTGTGAGGAAGCAGATATTCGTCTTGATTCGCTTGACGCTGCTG | 522
GAAATCCGAGCTTGTCACCTTTAACTTACGTTTTAGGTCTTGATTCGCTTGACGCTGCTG | 514
TGTACGAAGCTATCAAACGTGTATATAGTAGTTAGGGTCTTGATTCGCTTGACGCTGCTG | 564
GAAGAGAACTACCCTGACGTCATCAGCGAAATTTAGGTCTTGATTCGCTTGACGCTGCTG | 491
CCTAACTACTATAGACACATAAAATAGCTTCGTACAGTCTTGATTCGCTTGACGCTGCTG | 532
CTACACCTACTGCATCACCTACTTGTATAATCCTTCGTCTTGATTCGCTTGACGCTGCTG | 560
GAAGGGTAGCGACGGGATGTGACAATACCTTTCTAGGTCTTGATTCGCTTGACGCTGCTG | 525
CCTAACTACTATAGTCACGGGACATAGCTTCGTACAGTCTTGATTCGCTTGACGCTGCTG | 4350
